Experimental data gathered from unrelated publications.
Protocols differ between the studies behind these lines. ± gives the spread as reported. Values after ≈ are worked out from the molar mass of the structure shown.

CC(C)CS[C@H]1[C@H](O)[C@@H](N)[C@@H](O[C@H]2[C@H](O[C@@H]3O[C@H](CO)[C@@H](O[C@H]4O[C@@H](CN)[C@@H](O)[C@H](O)[C@H]4N)[C@H]3O)[C@@H](O)[C@H](N)C[C@@H]2N)O[C@@H]1CO  selectivity ratio (bacterial hybrid ribosome, human cytoplasmic A site; cell-free translation; baseline: cytoplasmic hybrid over wild-type bacterial): 1610
CCCO[C@H]1[C@H](O)[C@@H](N)[C@@H](O[C@H]2[C@H](O[C@@H]3O[C@H](CO)[C@@H](O[C@H]4O[C@@H](CN)[C@@H](O)[C@H](O)[C@H]4N)[C@H]3O)[C@@H](O)[C@H](N)C[C@@H]2N)O[C@@H]1CO  IC50 ratio (Mycobacterium smegmatis ribosome G1491C; translation, cell-free translation; baseline: G1491C mutant over wild type): 2000
COc1ccc(S(=O)(=O)n2nc(OC(=O)c3ccccc3)cc2N)cc1  protein mass shift (dengue virus 2 protease S135A; ESI-TOF MS; 20 µM, 1 h, 25 °C; baseline: DMSO control): 0 Da
CC(C)C[C@H](NC(=O)[C@H](Cc1ccc(OP(=O)(O)O)cc1)NC(=O)[C@H](CCC(=O)O)NC(=O)[C@H](CC(=O)O)NC(=O)[C@H](C)NC(=O)[C@H](CC(=O)O)NC(=O)[C@@H](NC(=O)CCCCCNC(=O)CCCC[C@@H]1SC[C@@H]2NC(=O)N[C@@H]21)C(C)C)C(N)=O  dephosphorylation (human DUSP22): 6%
Cc1cc(Nc2cc(CN(C)C)cc(NC(=O)c3cccc(Nc4ccnc5ccccc45)c3)c2)nc(N)n1  inhibition (human DNA polymerase theta; inhibitor; 50 µM): ~50%
CC[S+]([O-])C1C(CO)OC(OC2C(N)CC(N)C(O)C2OC2OC(CO)C(OC3OC(CN)C(O)C(O)C3N)C2O)C(N)C1O (mixture of isomers)  selectivity ratio (bacterial hybrid ribosome, human mitochondrial A site; cell-free translation; baseline: mitochondrial hybrid over wild-type bacterial): 236
COCOC[C@H]1O[C@H](O[C@H]2[C@H](O[C@@H]3O[C@H](CO)[C@@H](O[C@H]4O[C@@H](CN)[C@@H](O)[C@H](O)[C@H]4N)[C@H]3O)[C@@H](O)[C@H](N)C[C@@H]2N)[C@H](N)[C@@H](O)[C@@H]1O  IC50 (Mycobacterium smegmatis ribosome G1491A; translation, cell-free luciferase synthesis): 83.7 ± 18 µg/mL (≈ 127 µM)
NC[C@@H]1O[C@H](O[C@H]2[C@@H](O)[C@H](O[C@@H]3[C@@H](O)[C@H](N)C[C@H](N)[C@H]3O[C@H]3O[C@H](CO)[C@@H](CCO)[C@H](O)[C@H]3N)O[C@@H]2CO)[C@H](N)[C@@H](O)[C@@H]1O  selectivity ratio (bacterial hybrid ribosome, human cytoplasmic A site; cell-free translation; baseline: cytoplasmic hybrid over wild-type bacterial): 1700
CC[C@@H]1CN2CCc3c([nH]c4cccc(OC)c34)[C@@H]2C[C@@H]1/C(=C\OC)C(=O)OC  IC50 (anti-compound rabbit polyclonal IgG; antibody binding, competitive indirect ELISA; antibody pre-incubated with standard): 3.13 µg/mL (≈ 7.86 µM)
CC(C)S[C@H]1[C@H](O)[C@@H](N)[C@@H](O[C@H]2[C@H](O[C@@H]3O[C@H](CO)[C@@H](O[C@H]4O[C@@H](CN)[C@@H](O)[C@H](O)[C@H]4N)[C@H]3O)[C@@H](O)[C@H](N)C[C@@H]2N)O[C@@H]1CO  selectivity ratio (bacterial hybrid ribosome, human mitochondrial A1555G A site; cell-free translation; baseline: A1555G hybrid over wild-type bacterial): 1250
O=C(Oc1nsnc1N1CCOCC1)N1CCOCC1  inhibition (trypsin; enzyme activity, inhibitor, gel-based; up to 100 µM, together with: denatured BSA substrate): no inhibition
Cc1ncsc1-c1ccc(CNC(=O)[C@@H]2C[C@@H](O)CN2C(=O)[C@@H](NC(=O)Cc2ccc(-c3ccc(CNC(=O)c4cc5c(cc4CS(C)(=O)=O)-c4cn(C)c(=O)c6[nH]cc(c46)CN5c4ncc(F)cc4F)cc3)cc2)C(C)(C)C)cc1  degradation (Spodoptera frugiperda BRD3; degrader, targeted LC-MS; Sf9; 1 µM, 24 h): > 85%
CC(C)C[C@H](NC(=O)[C@H](C)NC(=O)[C@H](CCCCN)NC(=O)[C@H](CCCNC(=N)N)NC(=O)[C@H](CCC(=O)O)NC(=O)[C@H](C)NC(=O)[C@H](CCC(=O)O)NC(=O)[C@H](CCCCN)NC(=O)[C@H](CCCCN)NC(=O)[C@H](CC(=O)O)NC(=O)[C@H](Cc1c[nH]cn1)NC(=O)[C@H](CC(=O)O)NC(=O)[C@H](Cc1c[nH]cn1)NC(=O)[C@H](CCCNC(=N)N)NC(=O)[C@H](CCC(=O)O)NC(=O)[C@H](CO)NC(=O)[C@H](CCCCN)NC(=O)[C@H](CC(C)C)NC(=O)[C@H](CCCNC(=N)N)NC(=O)[C@H](CCC(=O)O)NC(=O)[C@H](CC(C)C)NC(=O)[C@H](CCC(=O)O)NC(=O)[C@H](C)NC(=O)[C@H](CCC(=O)O)NC(=O)[C@H](CCC(=O)O)NC(=O)[C@H](Cc1c[nH]cn1)NC(=O)[C@H](CCCNC(=N)N)NC(=O)[C@H](CCC(=O)O)NC(=O)[C@H](CC(N)=O)NC(=O)[C@H](CCCCN)NC(=O)[C@H](CC(C)C)NC(=O)[C@H](CCCNC(=N)N)NC(=O)[C@H](CCC(N)=O)NC(=O)[C@H](CC(C)C)NC(=O)[C@H](CCC(=O)O)NC(=O)[C@H](C)NC(=O)[C@H](CC(=O)O)NC(=O)[C@H](C)NC(=O)[C@@H](NC(=O)[C@H](CC(C)C)NC(=O)[C@H](CCCCN)NC(=O)[C@H](CCC(=O)O)NC(=O)[C@@H](NC(=O)[C@H](CO)NC(=O)CN)C(C)C)[C@@H](C)O)C(=O)N[C@@H](CCC(=O)O)C(=O)N[C@@H](CC(=O)O)C(=O)N[C@@H](CCCCN)C(=O)N[C@@H](CC(C)C)C(=O)N[C@@H](C)C(=O)N[C@@H](CC(=O)O)C(=O)N[C@@H](Cc1ccc(O)cc1)C(=O)O  molecular mass (human K2 plasminogen complex; analytical ultracentrifugation; pH 7.4, 25 °C): 27300 ± 850 Da
C[C@@H]1O[C@@H](O[C@H]2[C@H](O[C@H]3CC[C@@]4(C)C(CC[C@]5(C)C4CC=C4C6CC(C)(C)CC[C@]6(C(=O)O)CC[C@]45C)[C@]3(C)CO)OC[C@H](O)[C@@H]2O)[C@H](O)[C@H](O[C@@H]2O[C@H](CO)[C@@H](O)[C@H](O)[C@H]2O)[C@H]1O (stereo partly drawn)  EC50 (PPARs; reporter gene, agonist; HepG2 transfected PPRE-luciferase and PPAR; 20 h): 1900 ± 300 nM
CCS(=O)(=O)[C@H]1[C@H](O)[C@@H](N)[C@@H](O[C@H]2[C@H](O[C@@H]3O[C@H](CO)[C@@H](O[C@H]4O[C@@H](CN)[C@@H](O)[C@H](O)[C@H]4N)[C@H]3O)[C@@H](O)[C@H](N)C[C@@H]2N)O[C@@H]1CO  selectivity ratio (bacterial hybrid ribosome, human mitochondrial A1555G A site; cell-free translation; baseline: A1555G hybrid over wild-type bacterial): 21
O=C(N[C@@H](Cn1cncn1)c1ccc(F)cc1F)c1ccc(-c2nnc(-c3ccccc3)o2)cc1  remaining activity (Leishmania infantum CYP51; concentration not given): 68 ± 5.1%
CC(=O)N1c2ccc(-c3ccc(C(=O)NCCN4CC(N5CCN(CC(=O)N[C@H](C(=O)N6C[C@H](O)C[C@H]6C(=O)NCc6ccc(-c7scnc7C)cc6)C(C)(C)C)CC5)C4)cc3)cc2[C@H](Nc2ccc(Cl)cc2)C[C@@H]1C  degradation (Spodoptera frugiperda BRD3; degrader, targeted LC-MS; Sf9; 1 µM, 24 h): 74%
O=C(O)COc1ccc(Cl)cc1  affinity increase (Torpedo CLC-0 Y512A C212S; chloride current, inhibitor, patch clamp; 100 mV, unit not given; baseline: wild type): ~10
c1ccc(CCNC2CCCc3c2[nH]c2ccc(C4CCCCC4)cc32)cc1 (stereo not drawn)  lipid II synthesis (MurG, Staphylococcus aureus; inhibitor): inhibited
CC(C)CC(C)n1ccn2cc(C(=O)NCc3ccc(F)cc3F)c(=O)c(O)c2c1=O (stereo not drawn)  EC50 (HIV-1 integrase wild type; viral replication; HOS, HIV-1; single-round vector): 4.2 ± 1 nM
CC(=O)N[C@H]1CSC(=O)[C@H](CC(C)C)NC(=O)[C@H](Cc2ccc(O)cc2)NC(=O)[C@H](CC(N)=O)NC(=O)[C@H](CO)NC1=O  inhibition (AgrC-II; GFP reporter; Staphylococcus epidermidis, agr group-II reporter; 10 µM): ~75%
NC[C@@H]1O[C@H](O[C@H]2[C@@H](O)[C@H](O[C@@H]3[C@@H](O)[C@H](N)C[C@H](N)[C@H]3O[C@H]3O[C@H](CO)[C@@H](SCCF)[C@H](O)[C@H]3N)O[C@@H]2CO)[C@H](N)[C@@H](O)[C@@H]1O  selectivity ratio (bacterial hybrid ribosome, human mitochondrial A site; cell-free translation; baseline: mitochondrial hybrid over wild-type bacterial): 1700
CC(C)C[C@@H]1NC(=O)[C@H](Cc2ccc(O)cc2)NC(=O)[C@H](CC(N)=O)NC(=O)[C@H](CO)NC(=O)[C@@H](NC(=O)[C@@H]2CCCN2C(=O)[C@H](CC(N)=O)NC(=O)[C@@H](N)Cc2ccc(O)cc2)CSC1=O  inhibition (AgrC-II; GFP reporter; Staphylococcus epidermidis, agr group-II reporter; 10 µM): ~75%
CC(C)C(=O)N[C@H]1c2nc(CCc3ccccc3)cn2[C@H](CO)[C@@H](O)[C@@H]1O  selectivity ratio (human lysosomal HexA/HexB; baseline: HexA/B over OGA): > 200 fold
CCCCCCCCCCCCCCCC(=O)NCCCC[C@H](NC(=O)[C@H](CCCNC(=N)N)NC(=O)[C@H](Cc1ccc(O)cc1)NC(=O)[C@H](CC(C)C)NC(=O)[C@H](CCCNC(=N)N)NC(=O)CNS(=O)(=O)c1ccc(N)cc1)C(N)=O  Stern-Volmer constant ratio (Escherichia coli 70S ribosome; fluorescence quenching; baseline: 70S ribosome over LPS): ~30 fold
CCCS[C@H]1[C@H](O)[C@@H](N)[C@@H](O[C@H]2[C@H](O[C@@H]3O[C@H](CO)[C@@H](O[C@H]4O[C@@H](CN)[C@@H](O)[C@H](O)[C@H]4N)[C@H]3O)[C@@H](O)[C@H](N)C[C@@H]2N)O[C@@H]1CO  selectivity ratio (bacterial hybrid ribosome, human mitochondrial A site; cell-free translation; baseline: mitochondrial hybrid over wild-type bacterial): 1790
CCCCCCCCC(=O)NCc1ccc(O)c(OC)c1  IC50 (mouse mAb 1-G12; antibody binding, indirect competitive ELISA; together with: coating antigen 2-OVA): > 4 µg/mL

Excerpt of the above:
CC(=O)N[C@H]1CSC(=O)[C@H](CC(C)C)NC(=O)[C@H](Cc2ccc(O)cc2)NC(=O)[C@H](CC(N)=O)NC(=O)[C@H](CO)NC1=O  inhibition (AgrC-II; GFP reporter; Staphylococcus epidermidis, agr group-II reporter; 10 µM): ~75%
O=C(O)COc1ccc(Cl)cc1  affinity increase (Torpedo CLC-0 Y512A C212S; chloride current, inhibitor, patch clamp; 100 mV, unit not given; baseline: wild type): ~10
CC(C)CC(C)n1ccn2cc(C(=O)NCc3ccc(F)cc3F)c(=O)c(O)c2c1=O (stereo not drawn)  EC50 (HIV-1 integrase wild type; viral replication; HOS, HIV-1; single-round vector): 4.2 ± 1 nM
COCOC[C@H]1O[C@H](O[C@H]2[C@H](O[C@@H]3O[C@H](CO)[C@@H](O[C@H]4O[C@@H](CN)[C@@H](O)[C@H](O)[C@H]4N)[C@H]3O)[C@@H](O)[C@H](N)C[C@@H]2N)[C@H](N)[C@@H](O)[C@@H]1O  IC50 (Mycobacterium smegmatis ribosome G1491A; translation, cell-free luciferase synthesis): 83.7 ± 18 µg/mL (≈ 127 µM)
